Experimental data from different studies.
Parts stem from different laboratories: compare values within a part only. Substitutions count along the parent as printed.

Series 1
Target: Histone acetyltransferase KAT6A, winged helix 1, GST fusion (KAT6A, Homo sapiens, UniProt Q92794, residues 1-85)
Technique: protein binding microarray
Molecule type: double-stranded DNA, one strand shown
Matrix: in vitro
Tested at: not given
Setting: 8-mer, flanks averaged, mean of 2 arrays, mostly near background
Relative to: not given
Direction: higher = stronger binding
Target sequence (chain): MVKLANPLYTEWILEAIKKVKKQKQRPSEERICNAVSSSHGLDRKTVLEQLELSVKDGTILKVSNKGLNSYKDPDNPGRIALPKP
Oligonucleotide	E-score
CTGACCAG	0.0737
CGATCGGC	0.333
AATGCTAT	-0.123
ATCAACTA	-0.00455
ATCGGCGG	0.447
ATCGAGGG	-0.0472
ACGGCCAT	0.267
AAGGATGG	-0.266
GCGTATGA	0.104
GCCATTCA	0.00379
CTGTCGAC	-0.0341
AAGTGGGA	-0.176
GCATCGTA	0.041
AATGAATT	-0.221
GGGAAGAA	-0.0201
TCTCTCAA	-0.099
CAAGCATC	-0.0105
TAAAGTGA	-0.1
GTATCTTA	-0.004
GAGTGGCC	0.0338
AATATCAC	-0.0698
ACTCGGTG	-0.0253
TACAGGGA	-0.221
ATCCCATG	-0.173
TGATGCAA	-0.12

Series 2
Target: ABI1, truncated, D143A, DHFR fusion (Arabidopsis thaliana)
Technique: DHFR PCA, deep sequencing
Matrix: yeast
Setting: methotrexate growth selection, single substitutions
With: (+)-ABA 710 µM
Relative to: wild-type fitted maximum
Direction: higher = stronger binding
Starting sequence: PYL1, truncated, DHFR fusion (Arabidopsis thaliana); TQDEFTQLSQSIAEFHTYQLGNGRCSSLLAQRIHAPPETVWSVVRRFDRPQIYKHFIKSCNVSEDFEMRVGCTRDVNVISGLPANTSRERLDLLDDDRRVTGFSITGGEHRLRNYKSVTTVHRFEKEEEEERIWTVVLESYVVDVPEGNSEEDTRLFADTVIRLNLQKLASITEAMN; partner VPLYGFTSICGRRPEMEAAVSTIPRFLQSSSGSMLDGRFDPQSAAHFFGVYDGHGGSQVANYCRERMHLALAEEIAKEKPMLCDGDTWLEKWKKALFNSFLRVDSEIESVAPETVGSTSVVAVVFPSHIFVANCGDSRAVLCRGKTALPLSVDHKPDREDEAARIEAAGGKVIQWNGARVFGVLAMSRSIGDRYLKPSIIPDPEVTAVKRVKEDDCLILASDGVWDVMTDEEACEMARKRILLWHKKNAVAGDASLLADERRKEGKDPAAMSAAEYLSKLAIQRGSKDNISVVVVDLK
Change	relative binding score
P37T	99.2%
S171I	92.8%
I79G	88.4%
F47Q	-9.97%
G108W	12.1%
P146K	25.6%
I79C	109%
K54Q	13.2%
I57M	79.6%
E129V	111%
H110F	3.48%
H34N	98.6%
D96S	80.2%
S63C	107%
T73Q	106%
T73Y	104%
E129Q	111%

Series 3
Target: RNA binding protein fox-1 homolog 2, RRM domain, GST-SBP tag (RBFOX2, Homo sapiens, UniProt O43251-10, residues 100-194)
Technique: RNA Bind-n-Seq
Molecule type: RNA
Matrix: in vitro
Tested at: 365 nM
Setting: natural RNA segment, single round, ends assumed
Relative to: no-protein control
Direction: higher = stronger binding
Construct (chain): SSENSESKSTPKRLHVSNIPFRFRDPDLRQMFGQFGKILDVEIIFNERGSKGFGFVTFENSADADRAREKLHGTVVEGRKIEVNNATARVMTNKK
Oligonucleotide	RBNS enrichment (R)
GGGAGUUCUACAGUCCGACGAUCUCCUAAGGCUCCCUCCCAGGCAAGUGCCCACCAGCAAGUUCACCACAGAGCCUGAAGCCCACACUCCGGAAAUGUCUCCUUCCAGAGAAAUGUUGGAGCCGAUCCAGGGUUGGAAUUCUCGGGUGCCAA	0.636
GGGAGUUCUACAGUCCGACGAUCGUUUCUUAUGUAUCACACAUCCCCCAAAUAAGUGAUUUUUUCCCAGUGCUUUGUACUGUCAACUGCAUUAUCUUUAAUUAUUUAAAGGUAGAAUUAUUUAAUUUUGUGAUUGGAAUUCUCGGGUGCCAA	1.16
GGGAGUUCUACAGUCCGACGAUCUUAUUUUAAAUGUUUACAUUUCUUUGUGUUGUUCCAAGCCUGAAUAGAAACAGAUAGCAUUAAAGUACUUCCUUCCCACUCCUUUCUCUGGCUCUCUCUCCCCCACUUGUUGGAAUUCUCGGGUGCCAA	1.03
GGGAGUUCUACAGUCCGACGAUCGUGCCUAGAAUGGGCUCUUUAUCCAGUAGACACCACUGUACUUUUUGAUACGAGGGCAGUCUUAACUUGUGUUAAGGCCUGUGUGUAGCAUUGAAGGGAGGAGUUGCUUAUGGAAUUCUCGGGUGCCAA	0.247
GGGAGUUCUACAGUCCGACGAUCAAUUGCAGCUCAUGUCCGUGGGUGUGUGCACGGGUGCAUAUGUUGGAAGGGGUGCCUGUCCCCUUGGGGACAGAAGGAAAAUGAAAGGCCCCUCUGCUCACCCUGGCCAUUGGAAUUCUCGGGUGCCAA	1.16
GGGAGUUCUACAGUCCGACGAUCAGCUCUGGCCAGUCACCUUUAACCCAGCAGCUUGGGUUCAGUGUCACCUACGGAUUAUUUCUCUUUCUCGCCUGCCCUUAGGAUCUUAAGCUAAAGGGCACUGUUUAUUUUGGAAUUCUCGGGUGCCAA	0.333
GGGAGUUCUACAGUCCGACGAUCGCACAGCUCCUUCCUGAGCAGCCUCUCACCACUGCCACAAGGCUCCCUAAUGCUGGUCUCUGCUCCACUCCCCGGCUUCCCGUGAGGCAGGAGGCAGAGCCACAGCCAAGUGGAAUUCUCGGGUGCCAA	0.292
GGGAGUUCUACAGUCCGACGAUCUUUUGCUCAGGAAGUCUUUGGGGAAAUUAAGGAUCUUUGAAGCUCUGAAAUAGGUGAUCAGGUUAGUGGUGUCUGUCAGCUGUCUAAGAGGUUGGAAAAUGAACUACUCAUGGAAUUCUCGGGUGCCAA	0.478
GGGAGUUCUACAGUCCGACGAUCCGAUGGGCCAGGGGGCCUUACCAUUUCCCUGGGCUCUACUGCCUAGACAAACCCAGCCCGGACUCCAGCACACAAUGUUUGCACCCGUUCCCUGUCUGUCACCCCACAUGUGGAAUUCUCGGGUGCCAA	0.603
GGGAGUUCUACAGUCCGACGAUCUAAGUAUAGCAACUCAAACCAGACCUGCAUCCAUCCGAGACAAACGUUCCUCCUUCACCCUUGUUUUUACUUGAAAUUCGCUAGAAGAAAUGGCGAGCAGACAUCUGUUCUGGAAUUCUCGGGUGCCAA	0.62
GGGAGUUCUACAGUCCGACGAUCUAACCCAGCAGGCCCACCCCUCUGGGAGUCGUUGGUCUCCACCAGUUUUGUUAGGCUUUGAGUGUCUAUUCGGUUCCUAUCAAAGCUAGUGUGUAUUCCUUUCCACUACAUGGAAUUCUCGGGUGCCAA	0.221
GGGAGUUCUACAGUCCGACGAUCUUGUUUUAGUCUUAUGGCAUGAUGAUAGCAUAUGUGUUCAGGUUUAUAGCUGUUGUGUUUAAAAAUUGAAAAAAGUGGAAAACAUCUUUGUACAUUUAAGUCUGUAUUAUUGGAAUUCUCGGGUGCCAA	2.47

Series 4
Target: FOSL2, bZIP domain (human)
Technique: DHFR protein complementation
Matrix: yeast
Setting: single substitutions, most at no-binding floor
Relative to: wild-type JUN-FOS pair
Direction: higher = stronger binding
Starting sequence: JUN, bZIP domain (human); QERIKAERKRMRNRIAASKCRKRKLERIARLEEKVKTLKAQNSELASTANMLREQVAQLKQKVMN; partner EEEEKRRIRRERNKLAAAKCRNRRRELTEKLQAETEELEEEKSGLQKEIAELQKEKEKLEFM
Change	binding fitness [natural log]
Q55K	-0.00452
E32A	0.293
R30P	-0.0046
A29I	0.0832
T37G	0.0393
L45Q	-1.2
S43L	0.0545
K36I	0.0425
A40G	-0.0595
R30K	-0.0371
R30N	0.0299
L31E	-0.276
E44R	-0.0368
A29V	-0.163
L52M	-0.249
I28S	-0.172
Q55S	-0.118
E54T	-0.032
E54W	-0.184
T48G	-0.634
K39Y	-0.551
Q41T	-0.0104
A46Y	-0.0868

Series 5
Target: CCND1, cyclin fold, Cln2 fusion (human)
Technique: yeast growth competition, sequencing
Matrix: yeast
Setting: weak parent motif
Relative to: not given
Direction: higher = stronger binding
Starting sequence: E2F1 docking peptide (human); PPVKRRLDLETDH; partner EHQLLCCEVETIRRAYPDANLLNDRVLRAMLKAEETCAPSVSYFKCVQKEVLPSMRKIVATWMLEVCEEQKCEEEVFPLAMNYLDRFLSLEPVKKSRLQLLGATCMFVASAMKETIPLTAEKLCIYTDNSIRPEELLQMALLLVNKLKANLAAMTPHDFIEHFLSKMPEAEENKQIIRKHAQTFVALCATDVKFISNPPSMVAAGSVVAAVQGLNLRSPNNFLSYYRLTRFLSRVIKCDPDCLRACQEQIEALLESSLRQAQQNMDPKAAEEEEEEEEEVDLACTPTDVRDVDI
Change	normalised enrichment score
T11K	0.215
L7Y	0.0603
K4V	0.659
R6D	-0.291
H13M	0.497
V3H	-0.0256
T11A	0.784
R6F	0.0339
L7I	0.347
K4G	0.48
T11Y	0.724
T11R	-0.0352
E10L	-0.00107
P1N	0.307
R6T	0.805
K4D	0.234
P1V	0.311
P1M	1.25
R6L	0.356
D8A	-0.00186
P1C	0.142
E10Y	-0.426
R5T	0.0344
R6V	0.253
D12I	0.0873
